Experimental data gathered from unrelated publications.
Each numbered part is a random draw from the data of one study; scales do not carry over between parts.
UniProt P29322, sequence (whole entry, looked up): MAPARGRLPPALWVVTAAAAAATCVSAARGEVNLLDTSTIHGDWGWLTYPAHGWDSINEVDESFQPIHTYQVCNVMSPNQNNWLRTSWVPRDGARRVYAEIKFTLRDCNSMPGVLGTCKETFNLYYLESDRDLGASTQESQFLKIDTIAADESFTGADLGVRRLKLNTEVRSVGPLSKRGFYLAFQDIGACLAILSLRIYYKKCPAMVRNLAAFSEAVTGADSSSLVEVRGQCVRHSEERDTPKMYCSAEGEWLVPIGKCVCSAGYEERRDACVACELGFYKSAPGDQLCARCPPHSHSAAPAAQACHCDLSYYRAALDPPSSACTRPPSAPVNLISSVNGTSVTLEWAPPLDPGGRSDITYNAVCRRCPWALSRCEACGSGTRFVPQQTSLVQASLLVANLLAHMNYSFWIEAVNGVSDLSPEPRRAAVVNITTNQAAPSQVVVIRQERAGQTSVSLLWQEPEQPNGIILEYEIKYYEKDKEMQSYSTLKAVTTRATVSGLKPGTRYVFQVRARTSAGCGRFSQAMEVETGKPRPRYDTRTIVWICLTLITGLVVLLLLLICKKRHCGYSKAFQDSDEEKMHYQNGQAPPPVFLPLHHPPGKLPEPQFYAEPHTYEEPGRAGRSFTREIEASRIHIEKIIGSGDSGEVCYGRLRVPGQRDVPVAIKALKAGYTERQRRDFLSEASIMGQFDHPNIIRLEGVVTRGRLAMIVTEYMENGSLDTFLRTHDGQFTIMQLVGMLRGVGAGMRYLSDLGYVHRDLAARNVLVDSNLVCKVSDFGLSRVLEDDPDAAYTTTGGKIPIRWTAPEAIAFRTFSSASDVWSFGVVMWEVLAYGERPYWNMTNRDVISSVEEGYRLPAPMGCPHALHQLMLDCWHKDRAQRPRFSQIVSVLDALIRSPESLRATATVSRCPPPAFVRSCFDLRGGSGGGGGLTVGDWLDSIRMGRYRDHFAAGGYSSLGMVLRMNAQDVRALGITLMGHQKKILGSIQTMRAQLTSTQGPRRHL
UniProt Q9Y6R4, sequence (whole entry, looked up): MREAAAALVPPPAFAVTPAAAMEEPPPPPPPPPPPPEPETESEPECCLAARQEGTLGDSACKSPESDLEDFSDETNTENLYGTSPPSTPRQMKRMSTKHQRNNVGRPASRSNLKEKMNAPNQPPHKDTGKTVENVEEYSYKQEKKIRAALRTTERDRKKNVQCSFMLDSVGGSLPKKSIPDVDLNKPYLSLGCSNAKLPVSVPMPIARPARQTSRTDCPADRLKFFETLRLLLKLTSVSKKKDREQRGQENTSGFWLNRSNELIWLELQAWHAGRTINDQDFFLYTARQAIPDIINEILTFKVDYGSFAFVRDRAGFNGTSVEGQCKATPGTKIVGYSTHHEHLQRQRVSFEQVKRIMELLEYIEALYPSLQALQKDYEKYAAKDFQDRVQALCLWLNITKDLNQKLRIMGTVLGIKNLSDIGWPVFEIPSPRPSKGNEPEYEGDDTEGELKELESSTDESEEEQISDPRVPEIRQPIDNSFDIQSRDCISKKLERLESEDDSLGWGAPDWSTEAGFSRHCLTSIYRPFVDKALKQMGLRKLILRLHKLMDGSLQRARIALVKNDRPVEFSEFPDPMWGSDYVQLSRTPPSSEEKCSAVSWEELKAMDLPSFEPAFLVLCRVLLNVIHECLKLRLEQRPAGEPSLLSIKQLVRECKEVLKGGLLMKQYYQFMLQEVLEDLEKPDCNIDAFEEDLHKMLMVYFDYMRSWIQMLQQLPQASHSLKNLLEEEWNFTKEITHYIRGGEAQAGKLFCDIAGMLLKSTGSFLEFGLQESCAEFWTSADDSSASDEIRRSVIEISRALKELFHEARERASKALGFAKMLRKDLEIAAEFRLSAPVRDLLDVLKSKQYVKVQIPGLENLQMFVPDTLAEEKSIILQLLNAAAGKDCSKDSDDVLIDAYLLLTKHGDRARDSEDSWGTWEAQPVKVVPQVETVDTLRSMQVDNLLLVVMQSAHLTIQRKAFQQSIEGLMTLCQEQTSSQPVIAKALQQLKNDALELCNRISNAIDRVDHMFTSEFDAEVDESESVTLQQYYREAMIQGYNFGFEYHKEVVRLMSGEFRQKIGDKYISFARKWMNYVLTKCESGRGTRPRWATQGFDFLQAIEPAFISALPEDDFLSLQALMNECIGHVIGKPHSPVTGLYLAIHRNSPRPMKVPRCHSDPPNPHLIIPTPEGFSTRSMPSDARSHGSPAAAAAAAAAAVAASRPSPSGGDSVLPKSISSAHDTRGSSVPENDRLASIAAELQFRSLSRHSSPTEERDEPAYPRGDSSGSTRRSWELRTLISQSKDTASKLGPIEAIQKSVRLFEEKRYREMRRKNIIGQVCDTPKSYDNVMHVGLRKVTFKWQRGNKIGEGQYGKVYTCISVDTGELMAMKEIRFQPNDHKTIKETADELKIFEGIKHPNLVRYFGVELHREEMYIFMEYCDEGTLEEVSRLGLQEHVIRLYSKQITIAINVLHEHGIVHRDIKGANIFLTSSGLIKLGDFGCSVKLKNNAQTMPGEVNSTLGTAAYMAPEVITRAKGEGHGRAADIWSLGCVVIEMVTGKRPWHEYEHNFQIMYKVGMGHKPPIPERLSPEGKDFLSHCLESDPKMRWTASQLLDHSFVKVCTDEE
UniProt Q86UX6, sequence (whole entry, looked up): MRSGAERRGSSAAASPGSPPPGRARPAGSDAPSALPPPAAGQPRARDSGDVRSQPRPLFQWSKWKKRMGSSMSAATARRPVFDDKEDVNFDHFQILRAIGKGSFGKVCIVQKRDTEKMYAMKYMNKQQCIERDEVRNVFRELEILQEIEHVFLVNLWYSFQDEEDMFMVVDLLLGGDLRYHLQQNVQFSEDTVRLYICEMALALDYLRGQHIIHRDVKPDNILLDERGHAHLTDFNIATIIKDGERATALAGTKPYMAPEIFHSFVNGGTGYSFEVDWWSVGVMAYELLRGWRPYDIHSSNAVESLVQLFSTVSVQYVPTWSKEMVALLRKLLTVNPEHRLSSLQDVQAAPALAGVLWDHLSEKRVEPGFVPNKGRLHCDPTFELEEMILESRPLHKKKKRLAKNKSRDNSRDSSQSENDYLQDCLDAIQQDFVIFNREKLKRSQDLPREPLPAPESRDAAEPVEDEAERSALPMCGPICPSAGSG
UniProt Q9BYP7, sequence (whole entry, looked up): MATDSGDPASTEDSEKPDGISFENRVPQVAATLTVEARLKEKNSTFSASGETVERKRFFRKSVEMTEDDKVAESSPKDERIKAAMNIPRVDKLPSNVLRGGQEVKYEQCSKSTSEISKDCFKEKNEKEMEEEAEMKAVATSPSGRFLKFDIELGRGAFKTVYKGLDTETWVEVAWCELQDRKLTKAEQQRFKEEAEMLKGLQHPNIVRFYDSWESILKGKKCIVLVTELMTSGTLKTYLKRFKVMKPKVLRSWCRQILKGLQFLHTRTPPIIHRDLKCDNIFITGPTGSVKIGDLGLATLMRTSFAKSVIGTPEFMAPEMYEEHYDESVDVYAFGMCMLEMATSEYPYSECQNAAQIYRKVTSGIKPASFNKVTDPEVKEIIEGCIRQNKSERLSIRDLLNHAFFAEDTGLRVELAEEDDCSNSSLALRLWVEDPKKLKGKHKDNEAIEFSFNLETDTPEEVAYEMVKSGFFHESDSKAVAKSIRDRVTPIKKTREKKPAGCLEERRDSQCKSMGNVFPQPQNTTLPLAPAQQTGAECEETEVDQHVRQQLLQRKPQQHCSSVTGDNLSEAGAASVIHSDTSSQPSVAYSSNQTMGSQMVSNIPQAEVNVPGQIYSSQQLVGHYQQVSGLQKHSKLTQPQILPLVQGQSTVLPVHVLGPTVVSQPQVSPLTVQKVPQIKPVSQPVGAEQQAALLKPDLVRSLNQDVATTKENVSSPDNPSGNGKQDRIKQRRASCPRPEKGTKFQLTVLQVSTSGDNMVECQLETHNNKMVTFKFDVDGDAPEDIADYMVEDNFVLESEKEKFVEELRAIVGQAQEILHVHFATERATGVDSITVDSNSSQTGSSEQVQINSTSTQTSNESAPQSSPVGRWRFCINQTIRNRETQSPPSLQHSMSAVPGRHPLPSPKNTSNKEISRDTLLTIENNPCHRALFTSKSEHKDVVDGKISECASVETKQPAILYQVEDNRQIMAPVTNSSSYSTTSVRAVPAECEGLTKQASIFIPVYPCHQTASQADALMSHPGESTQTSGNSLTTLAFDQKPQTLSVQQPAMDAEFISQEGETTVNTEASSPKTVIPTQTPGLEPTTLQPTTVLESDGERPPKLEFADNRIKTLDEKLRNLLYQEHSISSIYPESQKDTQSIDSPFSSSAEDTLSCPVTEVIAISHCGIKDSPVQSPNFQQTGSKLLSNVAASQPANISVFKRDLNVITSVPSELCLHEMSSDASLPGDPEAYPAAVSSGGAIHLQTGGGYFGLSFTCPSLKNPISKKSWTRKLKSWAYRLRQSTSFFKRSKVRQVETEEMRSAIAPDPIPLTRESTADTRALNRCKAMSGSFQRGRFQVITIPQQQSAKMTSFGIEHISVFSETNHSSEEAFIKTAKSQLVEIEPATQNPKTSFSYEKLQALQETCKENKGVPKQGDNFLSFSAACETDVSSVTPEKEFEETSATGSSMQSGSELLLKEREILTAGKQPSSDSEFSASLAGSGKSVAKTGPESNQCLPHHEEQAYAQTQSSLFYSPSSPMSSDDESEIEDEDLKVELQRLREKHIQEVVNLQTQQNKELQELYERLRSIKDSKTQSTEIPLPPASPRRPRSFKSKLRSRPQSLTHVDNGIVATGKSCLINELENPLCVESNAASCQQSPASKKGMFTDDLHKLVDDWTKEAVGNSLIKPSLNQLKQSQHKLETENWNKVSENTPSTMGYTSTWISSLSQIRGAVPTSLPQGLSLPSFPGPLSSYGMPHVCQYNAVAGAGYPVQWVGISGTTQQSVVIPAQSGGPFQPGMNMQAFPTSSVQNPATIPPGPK

Sample 1
Target: RING finger protein unkempt homolog, zinc fingers 1-6, GST-SBP tag (UNK, Homo sapiens, UniProt Q9C0B0, residues 30-357)
Technique: RNA Bind-n-Seq
Molecule type: RNA
Matrix: in vitro
Concentration: not given
Notes: RNA with constant flanks, ends assumed
Reference: input RNA pool
Reading: higher = stronger binding
All sequences stand within: GGGAGUUCUACAGUCCGACGAUC … CAACAGAGGAUUGAGCAUCA
Residues (chain): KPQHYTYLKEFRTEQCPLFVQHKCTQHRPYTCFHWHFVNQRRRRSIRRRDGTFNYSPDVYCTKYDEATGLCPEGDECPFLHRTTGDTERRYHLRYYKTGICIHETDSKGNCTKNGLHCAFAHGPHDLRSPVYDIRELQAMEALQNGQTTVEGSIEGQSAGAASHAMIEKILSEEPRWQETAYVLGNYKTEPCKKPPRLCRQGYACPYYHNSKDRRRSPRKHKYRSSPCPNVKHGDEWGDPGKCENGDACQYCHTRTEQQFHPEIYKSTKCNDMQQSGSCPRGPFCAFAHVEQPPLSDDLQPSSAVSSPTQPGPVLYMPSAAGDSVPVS
Strand	bound/input enrichment [ratio]
AUUUUUCAUUUUGUUUGUUCUAAGAGGAUUGAAAAUCAGUUUAGUUUAAAUGUCUUUCUGUCCGGCCUUUCUUUCUUACAAUGAAGAGAUGAUUCUUCUAGUUUAUGGUUAAAAGUUUUU	16.8
CCUGCCAACGGGGACUUCACCUUUGUGUCUUCGGCGGACGCGGAAGAUCUCAGCGGUUCUACCGCAGCUCCAGAUGUCAAAUUAAACCUCGGUGUAAGCGGAGAUUUCAUCAAAGAAUCU	0.0266
GACGCUAGCGAUGGGACCGUGCGACUUCGUGGACUGCCAUUUGGUUGCAGCAAAGAGGAAACCGUUCAGUUCUUUCAAGGUAUAUUGAGAUCUUCAGGAGUAGCAGGAGUGAAAUCAAAG	0.284
GAAAUAACAAGUCUUGAUACAGAGAAUAUAGAUGAAAUUUUAAACAAUGCUGAUGUUGCUUCCGUAAAUUUUUAUGCUGACUGGUGUCGUUUCAGUCAGAUGUUGCAUCCAAUUUUUGAG	9.86
CUUGGUGGCGAAUGUGUUGCGGGUCCUGUUGGGCUGCUUUCUGUAUUGUCUCCUAACCCUCCCGUUUUAAUUGGACACUUCUUUGCUGUUGCAAUCUAUGCCGUGUAUUUUUGCUUUAAG	0.527
GAGAUGACGCUGGCCCAGCUAUUUCUACAGUCUGAAGCUGCUUAUUGCUGUGUCAGUGAAUCCGGAGAGCUUGGGAAGGUCCAAUUUCGGGAUUUAAAUCCAGAUGUGAAUGUUUUCCAG	0.109
CUCCCCUACGCGCUACACAAGUGGAGCUCCUUUUCCUCCACCUACCUUCCCGAGAACAUUUCCGUGGACAAACCAAAUGACCAAUCUUCAAGAUGGUCUUCAGAGAGCAACUAUCCUCCC	0.374
GCGCCCCCCGGGCGCCCCGAUGUUUUUCCUCCUCCCCUCAGCUCUGAGCAUAAUGGGCAGGCCGCUGAGGACGCAGUGUCCCGGCCAAAGGAUGACGGCGUACCAGAGGUCCGAGCUGCU	0.106

Sample 2
SMILES: CS(=O)(=O)NCC[C@H](NC(=O)c1cncc2c1cnn2-c1ccc(F)cc1)c1ccnc(S(C)(=O)=O)c1
Concentration: 1 µM
target	observed	technique	remaining binding [%]
CDK19 (Homo sapiens, UniProt Q9BWU1)		competition binding	80
EPHA8 (Homo sapiens, UniProt P29322)	cell-free assay	competition with immobilised ligand	100
STK32C (Homo sapiens, UniProt Q86UX6)	cell-free assay	competition with immobilised ligand	100
MAP3K4 (Homo sapiens, UniProt Q9Y6R4)	cell-free assay	competition with immobilised ligand	84
WNK3 (Homo sapiens, UniProt Q9BYP7)	cell-free assay	competition with immobilised ligand	100

Sample 3
Target: TAR DNA-binding protein 43, full length, His tag (TARDBP, Homo sapiens, UniProt Q13148, residues 1-414)
Technique: RNA Bind-n-Seq
Molecule type: RNA
Matrix: in vitro
Concentration: 20 nM
Notes: 6-mer, flanks averaged, single round
Together with: 150 mM LiCl
Reference: input library
Reading: higher = stronger binding
Strand	6-mer enrichment (R)
UCGGUG	1.08
CCUGUC	0.905
UAUGCU	1.01
UCGCAU	0.874
UGCGUC	1.06
CUGGUA	0.942
ACACCC	1.08
GCGCAG	1.02

Sample 4
Target: Mitogen-activated protein kinase kinase kinase 7 (MAP3K7, Homo sapiens, UniProt O43318)
Observed: enzyme activity
Action: inhibitor
Concentration: 0.5 µM
Reference: control
Construct (O43318 1-606): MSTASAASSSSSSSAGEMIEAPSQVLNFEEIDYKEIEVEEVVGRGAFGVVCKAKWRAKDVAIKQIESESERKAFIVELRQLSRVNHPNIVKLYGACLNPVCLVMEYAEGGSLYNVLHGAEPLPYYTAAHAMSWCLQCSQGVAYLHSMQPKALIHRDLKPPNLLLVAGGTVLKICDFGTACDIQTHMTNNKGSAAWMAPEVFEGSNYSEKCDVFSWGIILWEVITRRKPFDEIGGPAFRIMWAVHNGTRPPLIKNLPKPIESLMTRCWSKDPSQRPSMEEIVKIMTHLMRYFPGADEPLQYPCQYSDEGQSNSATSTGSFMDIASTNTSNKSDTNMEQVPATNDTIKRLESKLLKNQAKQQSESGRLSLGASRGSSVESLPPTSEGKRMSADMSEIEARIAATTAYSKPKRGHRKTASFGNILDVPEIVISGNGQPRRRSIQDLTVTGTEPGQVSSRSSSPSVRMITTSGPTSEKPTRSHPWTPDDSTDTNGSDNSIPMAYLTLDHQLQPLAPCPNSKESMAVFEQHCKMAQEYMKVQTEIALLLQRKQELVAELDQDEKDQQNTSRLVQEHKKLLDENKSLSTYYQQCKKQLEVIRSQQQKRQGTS
SMILES	remaining activity [%]
O=C1NC(=O)C(c2cn(CCCO)c3ncccc23)=C1c1cnccn1	95.5
COc1ccc(OC)c2c(=S)c3ccccc3[nH]c12	98.8
O=c1c2ccccc2[nH]c(=S)n1CCN1CCC(=C(c2ccc(F)cc2)c2ccc(F)cc2)CC1	103
CC(C)[C@H](CO)Nc1nc(Nc2cc(N)cc(Cl)c2)c2ncn(C(C)C)c2n1	51.3
Cn1c2ccccc2c2c3c(c4c5ccccc5n(CCC#N)c4c21)CNC3=O	25.4
N#CC(C#N)=C(N)/C(C#N)=C/c1ccc(O)cc1	94.8
CN(C)c1ccc(C=C2C(=O)Nc3ccccc32)cc1	100
Nc1ccc2ncnc(NCCc3ccc(Oc4ccccc4)cc3)c2c1	96.2
Cc1ccc(Nc2nccc(N(C)c3ccc4c(C)n(C)nc4c3)n2)cc1S(N)(=O)=O	90.6
COc1ccc(C(=O)Nc2sc3c(c2C(N)=O)CCCC3)cc1OC	101
O=C(CCCc1ccc(-c2ccccc2F)cc1)Nc1ccc(O)cc1	105
OCC(O)CCON=C1C(c2c(O)[nH]c3ccccc23)=Nc2ccccc21 (stereo not drawn)	50.5
O=C(O)c1ccc2c3c1cccc3c(=O)n1c3ccccc3nc21	74.4
Cn1sc(=O)n(Cc2ccccc2)c1=O	104
O=S(=O)(c1cccc2cnccc12)N1CCCNCC1	106
